Measured values pooled from the literature.
A part holds a random share of what one study measured. Positions count from the first letter of the parent shown.

Set 1 — technique: DHFR PCA, deep sequencing; medium: yeast; together with: (+)-ABA 0.0091 µM; baseline: wild-type fitted maximum; reading: higher = stronger binding
Target: ABI1, truncated, D143A, DHFR fusion (Arabidopsis thaliana)
Notes: methotrexate growth selection, single substitutions
Starting sequence: PYL1, truncated, DHFR fusion (Arabidopsis thaliana); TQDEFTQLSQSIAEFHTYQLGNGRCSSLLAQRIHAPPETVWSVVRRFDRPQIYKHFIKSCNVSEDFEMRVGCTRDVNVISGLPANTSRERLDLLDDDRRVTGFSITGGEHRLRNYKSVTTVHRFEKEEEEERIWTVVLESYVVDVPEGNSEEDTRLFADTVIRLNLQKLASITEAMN; partner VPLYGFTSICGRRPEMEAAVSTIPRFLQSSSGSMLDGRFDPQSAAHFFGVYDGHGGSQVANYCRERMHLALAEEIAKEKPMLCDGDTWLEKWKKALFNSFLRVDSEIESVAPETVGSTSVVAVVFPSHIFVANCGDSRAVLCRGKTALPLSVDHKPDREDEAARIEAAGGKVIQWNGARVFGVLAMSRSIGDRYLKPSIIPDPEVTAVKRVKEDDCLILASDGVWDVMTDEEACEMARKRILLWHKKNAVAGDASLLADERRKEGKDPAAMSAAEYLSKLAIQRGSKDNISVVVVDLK
`T6W` — result for “relative binding score”: 25.8%.
Under “relative binding score”, `R111Y` is recorded as -3.74%.
`L94V` — result for “relative binding score”: -2.16%.
`E4G` — result for “relative binding score”: -0.538%.
`Q51P`: “relative binding score” 0.966%.

Set 2 — technique: protein binding microarray; molecule type: double-stranded DNA, one strand shown; medium: in vitro; tested at: not given; baseline: not given; reading: higher = stronger binding
Target: Histone acetyltransferase KAT6A, both winged helices, GST fusion (KAT6A, Homo sapiens, UniProt Q92794, residues 1-181)
Notes: 8-mer, flanks averaged, mean of 2 arrays, mostly near background
Target sequence (chain): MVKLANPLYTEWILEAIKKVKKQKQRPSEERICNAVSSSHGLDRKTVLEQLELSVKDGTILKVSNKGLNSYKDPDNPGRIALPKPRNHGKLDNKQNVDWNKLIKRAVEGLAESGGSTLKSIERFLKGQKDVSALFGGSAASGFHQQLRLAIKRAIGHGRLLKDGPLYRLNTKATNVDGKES
With `CCGTTCAG` the E-score was 0.0984.
`GCAAAAAA` has an E-score of 0.00436.
`ATACGGGA` gave an E-score of 0.295.
`AATTTTAT` has an E-score of 0.0502.
The E-score of `GAATAGGA` is reported as 0.0208.

Set 3 — technique: protein-binding microarray; molecule type: double-stranded DNA, one strand shown; medium: in vitro; tested at: 940 nM top; notes: 60-bp whole probe; together with: salmon DNA 0.4 mg/ml; baseline: random background probes; reading: higher = stronger binding; shared flanks, not repeated: GCCTAGCAC … GTCTTGATTCGCTTGACGCTGCTG
Target: Interferon regulatory factor 5, full length, phosphomimetic (IRF5, Homo sapiens, UniProt Q13568-2, residues 1-514, S451D/S453D/S456D/S462D)
`GACGGTATCCTCATCCTGACGTGCTAG`: “fitted relative affinity” 0.236 z-score.
Under “fitted relative affinity”, `TTAGGTATTCTTTTCCTTTAGTGCTAG` is recorded as 0.465 z-score.
`TCACTTTTTTTAATTGAACTGTGCTAG` — result for “fitted relative affinity”: 0.767 z-score.
For `TTAGATATCGCGTATCGATTAGTGCTA`, “fitted relative affinity” read 1.3 z-score.
`TTATGTTCCGGTTTCGGTTAGTGCTAG` — result for “fitted relative affinity”: 8.91 z-score.
For `GACTATCTCAGACTGGAGACGTGCTAG`, “fitted relative affinity” read -0.262 z-score.

Mixed results
`PhoQ, residues 284 288 289 292 302 303 GTAMQF` gave a fold induction of 2.61 (PhoP, residues 12 14 15 18 19 AGCRL (Escherichia coli, UniProt P23836); Sort-seq, refers to: YFP reporter; E. coli; PhoQ-PhoP variant library, together with: 10 µM Mg2+; baseline: high Mg2+ state, higher = stronger signaling).

A few entries again (set 3):
`TTATGTTCCGGTTTCGGTTAGTGCTAG` — result for “fitted relative affinity”: 8.91 z-score.
